# Measured values from different studies.
# Protocols differ between the studies behind these lines. Numbers after ± are the reported error.
# Cell line: HT-29
SMILES,read-out,method,time,IC50
CNCCNC(=O)c1cn(C23CCCC(C)(CCC4C2CC4(C)C)C3)nn1 (stereo not shown),cell growth or viability,CCK-8,72 h,8.8 µM
CN(C)CCO/N=C1/C=C2CCC3C(CC[C@]4(C)/C(=C/c5ccccn5)CCC34)[C@@]2(C)CC1 (stereo partly shown),cell growth or viability,MTT,72 h,13 µM
O=C(CN1CCC(c2noc3cc(F)ccc23)CC1)N1CCC(=C2c3ncccc3CCc3cc(Cl)cc(Br)c32)CC1,cell growth or viability,SRB,,45 µM
C#CCN(CC(=O)O[C@H]1[C@H](C)O[C@@H](O[C@H]2[C@H](N(C)C)[C@@H](O)[C@H](O[C@H]3[C@@H](CC=O)C[C@@H](C)[C@@H](O[C@H]4CC[C@H](N(C)C)[C@@H](C)O4)/C=C/C=C/C[C@@H](C)OC(=O)C[C@@H](O)[C@@H]3OC)O[C@@H]2C)C[C@@]1(C)O)Cc1ccc(C(F)(F)F)cc1,cell growth or viability,CCK-8,72 h,2.15 µM
CC12CCCC(NS(=O)(=O)C3CCN(Cc4ccccc4)C3)(C1)C1CC(C)(C)C1CC2 (stereo not shown),cell growth or viability,CCK-8,72 h,16.4 µM
Nn1c(SCC(=O)N2CCC(=C3c4ncccc4CCc4cc(Cl)cc(Br)c43)CC2)nnc1-c1ccccc1,cell growth or viability,SRB,,< 15 µM
O=C(C[c-]1cccc1)Oc1ccc(-n2cccc2)cc1.[Fe+2].c1cc[cH-]c1,cell growth or viability,MTT,,283 µM
CO[C@@H]1[C@@H](O[C@@H]2O[C@H](C)[C@@H](O[C@H]3C[C@@](C)(O)[C@@H](OC(=O)CC(C)C)[C@H](C)O3)[C@H](N(C)C)[C@H]2O)[C@@H](CC=O)C[C@@H](C)[C@@H](O[C@H]2CC[C@H](N(C)C)[C@@H](C)O2)/C=C/C=C/C[C@@H](C)OC(=O)C[C@H]1O,cell growth or viability,CCK-8,72 h,13.2 µM
N#Cc1c(F)c(Cl)c2nc(SCc3ccc4ccccc4c3)nc(N)c2c1F,cell growth or viability,MTT,96 h,6.54 µM
COc1c(C)c(OS(=O)(=O)c2ccccc2)c(C)c2c1C(=O)CC(c1ccccc1)O2 (stereo not shown),cell growth or viability,SRB,72 h,45.5 µM
Clc1cc(Br)c2c(c1)CCc1cccnc1C2=C1CCNCC1,cell growth or viability,SRB,,< 15 µM
Cc1cnc(NC2CCOCC2)nc1-n1cnc(C(=O)NC(CN)c2cc(F)cc(Cl)c2)c1 (stereo not shown),RSK1 Ser380 phosphorylation,ELISA,2 h,0.007 µM
C=C1CC(OC(=O)C(C)(O)CCl)C2C(=C)C(=O)OC2C2C1CC(O)C2(O)CCl (stereo not shown),cell growth or viability,,,0.04 µg/mL
COCCOCCSc1nc(N)c2c(F)c(C#N)c(F)c(F)c2n1,cell growth or viability,MTT,96 h,4.93 µM
Cn1ccn(N=Cc2ccccc2SSc2ccccc2C=Nn2ccn(C)c2=S)c1=S,cell proliferation,MTT,72 h,0.85 ± 0.15 µM
C[C@]12CC/C(=N\O)C=C1CCC1C2CC[C@]2(C)/C(=C/c3ccccn3)CCC12 (stereo partly shown),cell growth or viability,MTT,72 h,4.4 µM
COc1c(C)c(O)c(C(=O)C=Cc2ccccc2)c(OC)c1C,cell growth or viability,SRB,72 h,19.7 µM
COc1ccccc1/C=C1\SC(=O)N(CC(=O)Nc2ccc(C(=O)Nc3ccc([N+](=O)[O-])cc3)cc2)C1=O,cell growth or viability,MTT,,47.2 µM
CO[C@@H]1[C@@H](O[C@@H]2O[C@H](C)[C@@H](O[C@H]3C[C@@](C)(O)[C@@H](OC(=O)CN4CCOCC4)[C@H](C)O3)[C@H](N(C)C)[C@H]2O)[C@@H](CC=O)C[C@@H](C)[C@@H](O[C@H]2CC[C@H](N(C)C)[C@@H](C)O2)/C=C/C=C/C[C@@H](C)OC(=O)C[C@H]1O,cell growth or viability,CCK-8,72 h,4.19 µM
O=C1c2ccccc2C2C(=O)c3ccccc3OC12 (stereo not shown),cell growth or viability,resazurin,96 h,4.07 µg/mL
O=C(/C=C(O)/C=C/c1cccs1)/C=C/c1cccs1,cell growth or viability,SRB,72 h,59.1 µM
CCCCSc1nc(N)c2c(F)c(F)c(C#N)c(F)c2n1,cell growth or viability,MTT,96 h,35.7 µM
NS(=O)(=O)c1ccc(NC(=O)NN[C@@H]2OC[C@@H](O)[C@H](O)[C@H]2O)cc1,cell growth or viability,MTT,96 h,> 100 µM
CCCCCC(=O)O[C@H]1[C@H](C)O[C@@H](O[C@H]2[C@H](N(C)C)[C@@H](O)[C@H](O[C@H]3[C@@H](CC=O)C[C@@H](C)[C@@H](O[C@H]4CC[C@H](N(C)C)[C@@H](C)O4)/C=C/C=C/C[C@@H](C)OC(=O)C[C@@H](O)[C@@H]3OC)O[C@@H]2C)C[C@@]1(C)O,cell growth or viability,CCK-8,72 h,6.44 µM
COc1cc(OC)c2c(c1)OCC(c1cc(OC)c(OC)cc1OC)C2=NO (stereo not shown),cell growth or viability,MTT,72 h,115 µM
CCCCSc1nc(N)c2c(F)c(C#N)c(F)c(Cl)c2n1,cell growth or viability,MTT,96 h,59.4 µM
COc1ccc(CN2C(=O)C(=O)c3cc(NC(C)=O)ccc32)cc1,cell growth or viability,MTT,48 h,34.4 µM
CN(C)CCCO/N=C1/C=C2CCC3C(CC[C@]4(C)/C(=C/c5ccccn5)CCC34)[C@@]2(C)CC1 (stereo partly shown),cell growth or viability,MTT,72 h,> 100 µM
O=C(CSc1nc(-c2ccccc2)n[nH]1)N1CCC(=C2c3ncccc3CCc3cc(Cl)cc(Br)c32)CC1,cell growth or viability,SRB,,80 µM
NS(=O)(=O)c1ccc(NC(=O)NN[C@@H]2O[C@H](CO)[C@@H](O)[C@H](O)[C@@H]2O)cc1,cell growth or viability,MTT,96 h,82 µM
CN1CCCC1CS(=O)(=O)NC12CCCC(C)(CCC3C1CC3(C)C)C2 (stereo not shown),cell growth or viability,CCK-8,72 h,11.5 µM
COCCOCCSc1nc(N)c2c(F)c(C#N)c(F)c(Cl)c2n1,cell growth or viability,MTT,96 h,6.35 µM
C[C@@H]1O[C@@H](NNC(=O)Nc2ccc(S(N)(=O)=O)cc2)[C@H](O)[C@H](O)[C@H]1O,cell growth or viability,MTT,96 h,86 µM
CC1CN(C(=O)c2cn(C34CCCC(C)(CCC5C3CC5(C)C)C4)nn2)CCN1 (stereo not shown),cell growth or viability,CCK-8,72 h,4.94 µM
N#Cc1c(F)c(F)c2nc(SCC3CCCO3)nc(N)c2c1F (stereo not shown),cell growth or viability,MTT,96 h,9.62 µM
CCCCCCCC(=O)O[C@H]1[C@H](C)O[C@@H](O[C@H]2[C@H](N(C)C)[C@@H](O)[C@H](O[C@H]3[C@@H](CC=O)C[C@@H](C)[C@@H](O[C@H]4CC[C@H](N(C)C)[C@@H](C)O4)/C=C/C=C/C[C@@H](C)OC(=O)C[C@@H](O)[C@@H]3OC)O[C@@H]2C)C[C@@]1(C)O,cell growth or viability,CCK-8,72 h,5.42 µM
CSc1nc(N)c2c(F)c(C#N)c(F)c(Cl)c2n1,cell growth or viability,MTT,96 h,6.77 µM
O=C(CN1C(=O)S/C(=C\c2ccccc2Br)C1=O)Nc1ccc(C(=O)Nc2ccc(F)cc2)cc1,cell growth or viability,MTT,,22.3 µM
CO[C@@H]1[C@@H](O[C@@H]2O[C@H](C)[C@@H](O[C@H]3C[C@@](C)(O)[C@@H](OC(=O)c4ccccc4)[C@H](C)O3)[C@H](N(C)C)[C@H]2O)[C@@H](CC=O)C[C@@H](C)[C@@H](O[C@H]2CC[C@H](N(C)C)[C@@H](C)O2)/C=C/C=C/C[C@@H](C)OC(=O)C[C@H]1O,cell growth or viability,CCK-8,72 h,3.49 µM
CC1CNCCN1C(=O)c1cn(C23CCCC(C)(CCC4C2CC4(C)C)C3)nn1 (stereo not shown),cell growth or viability,CCK-8,72 h,4.08 µM
C[C@]12CC/C(=N\OCCN3CCCC3)C=C1CCC1C2CC[C@]2(C)/C(=C/c3ccccn3)CCC12 (stereo partly shown),cell growth or viability,MTT,72 h,3.3 µM
C#CCN(CC(=O)O[C@H]1[C@H](C)O[C@@H](O[C@H]2[C@H](N(C)C)[C@@H](O)[C@H](O[C@H]3[C@@H](CC=O)C[C@@H](C)[C@@H](O[C@H]4CC[C@H](N(C)C)[C@@H](C)O4)/C=C/C=C/C[C@@H](C)OC(=O)C[C@@H](O)[C@@H]3OC)O[C@@H]2C)C[C@@]1(C)O)C(=O)c1ccc(C(C)(C)C)cc1,cell growth or viability,CCK-8,72 h,1.84 µM
COc1cc(C2COc3cc(O)cc(O)c3C2=NO)c(OC)cc1O (stereo not shown),cell growth or viability,MTT,72 h,31.4 µM
COc1c(C)c(OC(=O)c2ccccc2)c(C)c(OC(=O)c2ccccc2)c1C(=O)/C=C/c1ccccc1,cell growth or viability,SRB,72 h,33.8 µM
C=CCSc1nc(N)c2c(F)c(C#N)c(F)c(Cl)c2n1,cell growth or viability,MTT,96 h,14.2 µM
CO[C@@H]1[C@@H](O[C@@H]2O[C@H](C)[C@@H](O[C@H]3C[C@@](C)(O)[C@@H](OC(=O)CN(C)C)[C@H](C)O3)[C@H](N(C)C)[C@H]2O)[C@@H](CC=O)C[C@@H](C)[C@@H](O[C@H]2CC[C@H](N(C)C)[C@@H](C)O2)/C=C/C=C/C[C@@H](C)OC(=O)C[C@H]1O,cell growth or viability,CCK-8,72 h,> 50 µM

# A few entries again:
SMILES,read-out,method,time,IC50
CSc1nc(N)c2c(F)c(C#N)c(F)c(Cl)c2n1,cell growth or viability,MTT,96 h,6.77 µM
CO[C@@H]1[C@@H](O[C@@H]2O[C@H](C)[C@@H](O[C@H]3C[C@@](C)(O)[C@@H](OC(=O)CN4CCOCC4)[C@H](C)O3)[C@H](N(C)C)[C@H]2O)[C@@H](CC=O)C[C@@H](C)[C@@H](O[C@H]2CC[C@H](N(C)C)[C@@H](C)O2)/C=C/C=C/C[C@@H](C)OC(=O)C[C@H]1O,cell growth or viability,CCK-8,72 h,4.19 µM
COc1ccc(CN2C(=O)C(=O)c3cc(NC(C)=O)ccc32)cc1,cell growth or viability,MTT,48 h,34.4 µM
CC12CCCC(NS(=O)(=O)C3CCN(Cc4ccccc4)C3)(C1)C1CC(C)(C)C1CC2 (stereo not shown),cell growth or viability,CCK-8,72 h,16.4 µM
N#Cc1c(F)c(Cl)c2nc(SCc3ccc4ccccc4c3)nc(N)c2c1F,cell growth or viability,MTT,96 h,6.54 µM
